Assay results from different studies.
Each numbered part is a random draw from the data of one study; scales do not carry over between parts.
Chain of UniProt Q16620 (whole entry, looked up): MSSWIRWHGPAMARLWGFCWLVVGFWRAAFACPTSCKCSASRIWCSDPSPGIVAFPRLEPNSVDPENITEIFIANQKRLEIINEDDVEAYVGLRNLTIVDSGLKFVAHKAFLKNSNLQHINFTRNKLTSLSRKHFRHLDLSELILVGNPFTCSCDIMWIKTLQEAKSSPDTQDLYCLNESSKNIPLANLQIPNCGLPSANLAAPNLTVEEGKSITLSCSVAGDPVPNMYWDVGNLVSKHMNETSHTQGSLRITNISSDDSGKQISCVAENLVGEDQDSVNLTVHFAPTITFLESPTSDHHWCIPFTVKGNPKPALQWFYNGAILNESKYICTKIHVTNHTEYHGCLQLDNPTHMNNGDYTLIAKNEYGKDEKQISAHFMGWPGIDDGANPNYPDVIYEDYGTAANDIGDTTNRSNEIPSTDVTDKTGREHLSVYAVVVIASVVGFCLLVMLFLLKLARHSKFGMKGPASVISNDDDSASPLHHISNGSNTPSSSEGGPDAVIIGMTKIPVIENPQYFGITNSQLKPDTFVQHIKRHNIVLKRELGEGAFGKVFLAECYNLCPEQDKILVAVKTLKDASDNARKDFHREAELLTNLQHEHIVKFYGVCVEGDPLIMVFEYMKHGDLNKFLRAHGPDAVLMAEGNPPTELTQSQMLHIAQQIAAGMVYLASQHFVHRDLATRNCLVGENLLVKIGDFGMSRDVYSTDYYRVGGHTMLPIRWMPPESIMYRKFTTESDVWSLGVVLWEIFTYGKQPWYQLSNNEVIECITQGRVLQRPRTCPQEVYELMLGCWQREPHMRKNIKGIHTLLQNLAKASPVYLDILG
Chain of UniProt O14578 (whole entry, looked up): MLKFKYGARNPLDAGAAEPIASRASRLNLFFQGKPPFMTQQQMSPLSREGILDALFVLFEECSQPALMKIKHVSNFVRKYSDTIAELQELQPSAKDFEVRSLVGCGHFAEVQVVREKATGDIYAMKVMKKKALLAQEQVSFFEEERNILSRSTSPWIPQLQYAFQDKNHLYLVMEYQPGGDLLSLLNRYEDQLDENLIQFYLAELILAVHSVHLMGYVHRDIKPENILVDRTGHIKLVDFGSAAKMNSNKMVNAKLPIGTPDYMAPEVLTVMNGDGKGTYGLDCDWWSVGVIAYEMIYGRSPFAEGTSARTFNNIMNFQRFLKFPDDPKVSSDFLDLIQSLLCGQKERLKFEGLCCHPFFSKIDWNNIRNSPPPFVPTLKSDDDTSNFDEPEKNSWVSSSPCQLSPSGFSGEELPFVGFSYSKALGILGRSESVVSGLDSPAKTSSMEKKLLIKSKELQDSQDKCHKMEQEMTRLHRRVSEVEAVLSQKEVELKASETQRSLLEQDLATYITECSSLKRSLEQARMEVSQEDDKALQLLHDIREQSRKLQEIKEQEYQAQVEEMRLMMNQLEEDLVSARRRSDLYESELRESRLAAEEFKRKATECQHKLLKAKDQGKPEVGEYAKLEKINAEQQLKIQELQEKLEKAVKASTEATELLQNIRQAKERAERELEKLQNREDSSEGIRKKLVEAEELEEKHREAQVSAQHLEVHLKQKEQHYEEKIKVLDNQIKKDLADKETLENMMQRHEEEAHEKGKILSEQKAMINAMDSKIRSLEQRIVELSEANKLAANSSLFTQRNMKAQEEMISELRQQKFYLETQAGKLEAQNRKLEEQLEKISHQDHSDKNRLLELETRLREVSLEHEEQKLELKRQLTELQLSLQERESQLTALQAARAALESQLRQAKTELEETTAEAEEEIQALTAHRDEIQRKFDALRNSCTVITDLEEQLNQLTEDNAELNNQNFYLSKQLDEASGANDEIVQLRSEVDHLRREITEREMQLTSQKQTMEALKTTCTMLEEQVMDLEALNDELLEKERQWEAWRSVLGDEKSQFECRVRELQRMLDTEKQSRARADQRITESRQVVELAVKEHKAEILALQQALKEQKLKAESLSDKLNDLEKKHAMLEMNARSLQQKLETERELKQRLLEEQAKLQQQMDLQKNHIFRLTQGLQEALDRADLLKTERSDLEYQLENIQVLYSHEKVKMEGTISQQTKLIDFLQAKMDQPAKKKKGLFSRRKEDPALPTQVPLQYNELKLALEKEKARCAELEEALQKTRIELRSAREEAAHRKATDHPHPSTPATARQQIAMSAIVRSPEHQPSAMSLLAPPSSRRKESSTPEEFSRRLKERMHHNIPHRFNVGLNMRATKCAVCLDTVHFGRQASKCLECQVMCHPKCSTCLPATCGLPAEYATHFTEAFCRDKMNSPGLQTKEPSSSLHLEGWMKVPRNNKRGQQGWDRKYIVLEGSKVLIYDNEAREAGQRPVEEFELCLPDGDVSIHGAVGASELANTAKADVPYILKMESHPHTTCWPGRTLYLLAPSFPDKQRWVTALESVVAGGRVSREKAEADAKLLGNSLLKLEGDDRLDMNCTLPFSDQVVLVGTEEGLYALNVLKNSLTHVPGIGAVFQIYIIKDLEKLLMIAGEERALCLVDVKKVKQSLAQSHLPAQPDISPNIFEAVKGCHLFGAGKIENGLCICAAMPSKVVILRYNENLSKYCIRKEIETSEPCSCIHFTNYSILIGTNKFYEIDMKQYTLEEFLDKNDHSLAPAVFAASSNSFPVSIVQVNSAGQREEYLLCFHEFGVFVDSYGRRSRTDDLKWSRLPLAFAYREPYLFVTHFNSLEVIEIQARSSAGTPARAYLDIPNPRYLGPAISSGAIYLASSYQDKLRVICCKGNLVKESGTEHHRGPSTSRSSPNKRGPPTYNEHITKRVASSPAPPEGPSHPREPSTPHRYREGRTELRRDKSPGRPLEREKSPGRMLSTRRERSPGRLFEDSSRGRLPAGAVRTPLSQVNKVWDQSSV
Chain of UniProt P07947 (whole entry, looked up): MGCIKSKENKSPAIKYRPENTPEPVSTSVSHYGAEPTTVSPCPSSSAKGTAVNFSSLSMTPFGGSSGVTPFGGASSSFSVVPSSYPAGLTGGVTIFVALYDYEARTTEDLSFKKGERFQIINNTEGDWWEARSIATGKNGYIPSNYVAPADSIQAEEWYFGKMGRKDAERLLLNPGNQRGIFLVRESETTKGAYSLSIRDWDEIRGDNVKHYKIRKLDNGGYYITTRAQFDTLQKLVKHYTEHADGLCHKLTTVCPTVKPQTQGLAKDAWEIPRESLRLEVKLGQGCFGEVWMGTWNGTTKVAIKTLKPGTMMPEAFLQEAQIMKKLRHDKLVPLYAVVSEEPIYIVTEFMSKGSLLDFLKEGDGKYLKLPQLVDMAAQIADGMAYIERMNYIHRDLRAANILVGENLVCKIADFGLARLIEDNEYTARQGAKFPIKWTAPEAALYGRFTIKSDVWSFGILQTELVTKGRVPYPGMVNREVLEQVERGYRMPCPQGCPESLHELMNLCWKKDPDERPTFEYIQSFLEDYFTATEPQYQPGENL
Chain of UniProt P0C264 (whole entry, looked up): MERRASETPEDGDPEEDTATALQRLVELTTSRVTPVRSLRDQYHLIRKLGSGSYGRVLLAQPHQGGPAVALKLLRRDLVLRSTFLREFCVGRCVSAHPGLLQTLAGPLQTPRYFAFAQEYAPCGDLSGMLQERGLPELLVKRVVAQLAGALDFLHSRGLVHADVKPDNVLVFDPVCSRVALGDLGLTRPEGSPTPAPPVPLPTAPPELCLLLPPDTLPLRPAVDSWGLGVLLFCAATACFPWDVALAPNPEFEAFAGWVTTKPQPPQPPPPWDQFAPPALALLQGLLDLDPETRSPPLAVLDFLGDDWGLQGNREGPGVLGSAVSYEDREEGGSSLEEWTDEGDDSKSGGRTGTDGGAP

Set 1
Species: human
Medium: microsomes or S9
Tested at: 2 µM
Time: 0.5 h
SMILES | remaining compound
O=C(NCC1CCN(c2ccc(F)cc2)C1)C1CC(O)CN1 (centres unmarked) | 96.6%
Cc1c(C(=O)N[C@H]2CCOC[C@H]2C2CCOCC2)c2cc(O)ccc2n1C | 69.1%
CCN1CCC(N(C)S(=O)(=O)c2c(C)cc(C(C)(C)C)cc2C)CC1 | 61.6%

Set 2
Target: Ras GTPase-activating protein-binding protein 1, full length (G3BP1, Homo sapiens, UniProt Q13283)
Chain of UniProt Q13283 (whole entry, looked up): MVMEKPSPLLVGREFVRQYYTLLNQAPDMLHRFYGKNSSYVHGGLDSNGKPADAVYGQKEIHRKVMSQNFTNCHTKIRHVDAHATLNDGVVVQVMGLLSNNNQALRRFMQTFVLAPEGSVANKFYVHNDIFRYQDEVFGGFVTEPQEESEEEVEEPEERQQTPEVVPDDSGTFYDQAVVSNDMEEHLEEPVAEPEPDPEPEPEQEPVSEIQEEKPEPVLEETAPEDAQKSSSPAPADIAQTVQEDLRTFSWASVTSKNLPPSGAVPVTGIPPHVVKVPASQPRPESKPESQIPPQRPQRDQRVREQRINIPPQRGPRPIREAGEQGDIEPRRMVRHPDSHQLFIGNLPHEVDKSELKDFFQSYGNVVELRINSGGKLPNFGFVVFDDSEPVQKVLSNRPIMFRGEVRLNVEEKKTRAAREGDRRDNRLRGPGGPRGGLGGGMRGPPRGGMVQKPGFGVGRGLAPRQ
Technique: RNA Bind-n-Seq
Form: RNA
Medium: in vitro
Tested at: 200 nM
Setting: whole 134-nt RNA, ends assumed
With: 150 mM KCl
Reference: input library
Reading: higher = stronger binding
Strand | log2 enrichment
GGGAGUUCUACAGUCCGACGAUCACCAUGCAGGUGGGCAUCUUAAAGAAGUGGGGCAAGGGGGGGAUAGGGAGGGGGGUAACACUUUGGGAACAGGUGGUCCCAGGUCGUUUCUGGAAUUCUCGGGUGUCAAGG | 1.37
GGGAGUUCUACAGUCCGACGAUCGUCCUGUGCUACACAUCGUAUGUACCGAAUCGGGGUUUUUGGUUUUUGGGGUUUUUGGAAAGUAUUAUGUUACGCCGUUCGGAUCUGCACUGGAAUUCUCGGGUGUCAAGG | -0.585
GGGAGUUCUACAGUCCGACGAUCCCUGUGCUACACAUCGUAUGUACCGAAUCGGGGUUUUUGGGGAAAAAGGGGAAAAAGGGGAAAGUAUUAUGUUACGCCGUUCGGAUCUGCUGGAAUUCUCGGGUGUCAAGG | 0.134
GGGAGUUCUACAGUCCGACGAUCUGGCCCUGGUGGCAUGCGGGGAGGAAGAGGUGGCCUCAUGGAUCGUGGUGGUCCCGGUCGAAUGUUCAGAGGUGGCCGUGGUGGAGACAGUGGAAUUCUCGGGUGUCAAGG | -0.288
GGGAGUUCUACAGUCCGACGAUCAGUCCUGUGCUACACAUCGUAUGUACCGAAUCGGGGAAAAAGGGGUUUGGGGUGGGGAAAGUAUUAUGUUACGCCGUUCGGAUCUGCACUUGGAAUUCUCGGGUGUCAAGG | 0.618
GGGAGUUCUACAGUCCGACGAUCUACCUGAUCAAUGACAGAGCCUUCUGAGGACAUUCCAAGACAGUAUACAGUCCUGUGGUCUCCUUGGAAAUCCGUCUAGUUAACAUUUCAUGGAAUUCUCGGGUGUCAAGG | -1.89
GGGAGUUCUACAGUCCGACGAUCGCAGGAAGUAAAAACAAAUGGAAAUGCUUCGGAUAGUGGCAGGGGUGGGGGUUGCUAAGGAAAGGGUGGGAUGGGAUUGGGUAAAGAGUUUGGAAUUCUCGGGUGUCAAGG | 1.13
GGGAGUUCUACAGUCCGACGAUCUGGGAGGAGGAUUUUGUUUAUUUUUUUAGCUCAUUUCCAGGGGUGGGAAUUUUUUUUUAAUAUGUGUCAUGAAUAAAGUUGUUUUUGAAAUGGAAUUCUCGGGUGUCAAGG | -0.497

Set 3
Target: Hepatocyte nuclear factor 3-alpha (Foxa1, Mus musculus, UniProt P35582, residues 1-468, full length assumed)
Technique: EMSA with sequencing
Form: double-stranded DNA, one strand shown
Medium: in vitro
Tested at: 10 and 20 nM
Setting: whole designed probe, mean of two concentrations, ends assumed
Reference: negative control set to 0
Reading: higher = stronger binding
Target sequence (chain): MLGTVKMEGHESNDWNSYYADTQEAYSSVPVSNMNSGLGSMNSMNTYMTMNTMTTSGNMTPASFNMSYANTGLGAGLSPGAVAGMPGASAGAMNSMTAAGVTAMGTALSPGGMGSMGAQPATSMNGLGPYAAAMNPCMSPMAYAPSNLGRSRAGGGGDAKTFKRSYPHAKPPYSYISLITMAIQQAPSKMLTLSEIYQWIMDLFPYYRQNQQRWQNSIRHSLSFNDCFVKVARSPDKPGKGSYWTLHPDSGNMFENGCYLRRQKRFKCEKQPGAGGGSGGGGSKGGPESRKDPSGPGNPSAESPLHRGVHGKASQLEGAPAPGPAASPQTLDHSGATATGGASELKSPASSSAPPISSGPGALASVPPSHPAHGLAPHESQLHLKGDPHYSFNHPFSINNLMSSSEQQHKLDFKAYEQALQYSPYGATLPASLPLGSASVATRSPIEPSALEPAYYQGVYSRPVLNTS
Strand | normalised bound fraction [ratio]
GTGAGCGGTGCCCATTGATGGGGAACGGACACAGCCAGAGGCCATGAGTGCTCAGGAGTGCCATAAACTGTGATTTTGAGACTGATAAGGCCAGGCTAAACTGGGTGTGTCTAGCTTGTTGTTTGCCTTTTTATATTTGAGGCCTATAAAAAAATAGTGAGAAAATAGCAAGATGCCCAGGAGACAGGTGATCTGATTCAGCCAGGGGGTGGGAGGTGGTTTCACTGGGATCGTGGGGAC | 0.0649
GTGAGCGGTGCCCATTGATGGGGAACCTGAATACATCAAAATTGTGTGAGATTATTGTTACCAATAACAAATAAATCTACTTACAAGTGGACCTTATTGTTAGACATGGCATGGCAATGTAATCTTAGAACCTTTGAATCAATAAATATAAAATTCATAAAGGATTACATTTTACAGTGGAACAAGTGGTTTCAAGTATAGCAAATCTGAAAATGAAAATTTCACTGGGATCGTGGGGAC | 0.268
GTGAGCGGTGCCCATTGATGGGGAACAGTTTATAGATAGATGGATAAATATTTTTTACATGGAGAAGGCGTAATAGGAAATATCATACTGATTATGAAGTACTTTCAAAACATTGACAATGTAAACAAATATTAATTAATAGGAGACAAGCATATTAAATGAATCCAGTATAATTGGTGTTACACTGGTGCAAAGTATTGAATGTTTGCTTCCCCACCCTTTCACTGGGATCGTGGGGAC | 0.502
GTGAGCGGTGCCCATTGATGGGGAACAGATGGCCAACTGGCACTTTTATAATTTTTAAAAGAGCTGACAATTAAAAAGATGTGGGATGGGGGAAAATAAAGAGAATTCCTCCCTAAAAAAGTAAACAAGTACTAATTTTTTTATTATTTGGGTGATCAGTGCTAATCAGATTGACTTTATTTGGAGGCCCTGAGAACCACATGGTACCAAAAATCCAGATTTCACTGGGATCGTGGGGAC | 0.4
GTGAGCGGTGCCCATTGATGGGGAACCCTTGTATTCTTCAGATCTCATTTTCCCCCAAATTTCTGCAGTGGTTGGCTTCCATTTCAGCATCAGTCACGAAATCTTGAAGGTCAGACACAGTAAACAGGGAAGGACATAAAATTAAGTGATTTGGGCGTAGTTTTGAGTCTCACAACTTTAACAGGGATGAGTCATACATTAAAGTATGTCGAAATAAATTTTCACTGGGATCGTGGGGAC | 0.0674
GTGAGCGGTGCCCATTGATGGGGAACCATTAGAGTCAAAGTTGTTAAGGGGAGCTAGTCATAGCTACCACGTGGCCAGGCATGTGGAACCAGACACATGAATCATCACAGGCACATAAAGTAAATAGATGAATAATGCTGACAACCTAGTTCATAGTGACACACTACTTGAGATATATAGAATAACATTATTACCCAGTAAGTATGTGAACATTCCGATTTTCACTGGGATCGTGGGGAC | 0.426
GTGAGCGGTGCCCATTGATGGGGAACCAATGGGGTAGGTCAGCCCCAGTGAACTCTCAAATGACCACTGAAGGAGGAAGTGAGTGCAGAGTGTGATACCACTCACATCCCAGCCCAGACTGTTTGCTCAGCTGGGAGGAGTGTTGCTTCTTCCTGCAAATTCGAGATAACACCCCTTCTCATGGCTTCAGGCATCACCTATCTCCTCTAGGCTGCGCTCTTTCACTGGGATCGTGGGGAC | 0.201
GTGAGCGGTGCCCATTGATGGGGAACTATAATTACATTACCTGATTAAGAAATTATGATGCAGAATAAAATGATTATGAAAGGTGATGACTTTAAATAAAATCTATCCTAAAGTATTCTTTGTTTACTTAGTAAAGCATGTGATTAGCAAAATTACATAGTACTCTGCTCTTCCTAGTTACGTATTTTTGAAGGAAAGCAAATAACATGCATTCAGCACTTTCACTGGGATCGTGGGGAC | 0.581

Set 4
Compound: CNC(=O)Nc1ccc2c(c1)CC[C@@]21OC(=O)N(CC(=O)N(Cc2ccc(F)cc2)[C@@H](C)C(F)(F)F)C1=O
Technique: competition with immobilised ligand
Tested at: 1 µM
target | test | remaining binding [%]
SBK3 (Homo sapiens, UniProt P0C264) | cell-free assay | 93
BRSK1 (Homo sapiens, UniProt Q8TDC3) | cell-free assay | 97
RIPK1 (Homo sapiens, UniProt Q13546) | cell-free assay | 100
LATS2 (Homo sapiens, UniProt Q9NRM7) | cell-free assay | 47
Tyrosine-protein kinase ABL1, non-phosphorylated (ABL1, Homo sapiens, UniProt P00519, H396P) | cell-free assay | 49
ROCK1 (Homo sapiens, UniProt Q13464) | cell-free assay | 72
CILK1 (Homo sapiens, UniProt Q9UPZ9) | binding | 72
NTRK2 (Homo sapiens, UniProt Q16620) | cell-free assay | 95
Ribosomal protein S6 kinase alpha-4, C-terminal kinase domain (RPS6KA4, Homo sapiens, UniProt O75676) | cell-free assay | 72
PIK3C2B (Homo sapiens, UniProt O00750) | cell-free assay | 100
FGFR4 (Homo sapiens, UniProt P22455) | cell-free assay | 100
Ribosomal protein S6 kinase alpha-3, N-terminal kinase domain (RPS6KA3, Homo sapiens, UniProt P51812) | cell-free assay | 88
CIT (Homo sapiens, UniProt O14578) | cell-free assay | 92
NEK10 (Homo sapiens, UniProt Q6ZWH5) | cell-free assay | 81
YES1 (Homo sapiens, UniProt P07947) | cell-free assay | 76
NEK11 (Homo sapiens, UniProt Q8NG66) | cell-free assay | 91
KIT (Homo sapiens, UniProt P10721, T670I/V559D) | cell-free assay | 93

Set 5
Cell line: mouse MPNST tumor cells
Technique: high-content immunofluorescence imaging
Refers to: nuclear SOX9
Tested at: 10 µM
Time: 12 h
Setting: mean of 2 replicates
Reference: DMSO control
Reading: higher = more nuclear SOX9
Structure (SMILES) | nuclear SOX9 intensity
Clc1ccc(CO/N=C(\Cn2ccnc2)c2ccc(Cl)cc2Cl)c(Cl)c1 | 91.6 % of DMSO
CC(C)(C)C(=O)OCC(=O)[C@H]1CC[C@H]2[C@@H]3CCC4=CC(=O)CC[C@]4(C)[C@H]3CC[C@]12C | 98.2 % of DMSO
CCCCN(CC)c1nc(C)nc2c1c(C)cn2-c1c(C)cc(C)cc1C | 106 % of DMSO

Single results of other studies
Target: Beta-1 adrenergic receptor (ADRB1, Homo sapiens, UniProt P08588)
Chain of UniProt P08588 (whole entry, looked up): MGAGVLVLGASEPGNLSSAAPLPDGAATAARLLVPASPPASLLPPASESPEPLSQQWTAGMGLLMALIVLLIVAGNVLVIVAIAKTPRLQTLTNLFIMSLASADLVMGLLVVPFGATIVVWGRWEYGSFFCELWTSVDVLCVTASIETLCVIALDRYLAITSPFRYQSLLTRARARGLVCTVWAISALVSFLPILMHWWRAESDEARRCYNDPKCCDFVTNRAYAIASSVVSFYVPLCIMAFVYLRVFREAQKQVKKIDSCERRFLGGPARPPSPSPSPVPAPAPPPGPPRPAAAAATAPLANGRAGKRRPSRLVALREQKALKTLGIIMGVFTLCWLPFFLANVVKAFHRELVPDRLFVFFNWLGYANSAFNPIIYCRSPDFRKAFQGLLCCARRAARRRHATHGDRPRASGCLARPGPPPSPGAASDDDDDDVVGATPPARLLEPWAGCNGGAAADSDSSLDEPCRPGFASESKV
Mode: antagonist
SMILES | IC50
CCn1c(=O)cc(N2CCN(c3cccc(Cl)c3)CC2)[nH]c1=O | ≥ 100 µM
Cc1cccc(-c2n[nH]cc2-c2ccnc3ccccc23)n1 | ≥ 100 µM

A few entries again (set 5):
Structure (SMILES) | nuclear SOX9 intensity
Clc1ccc(CO/N=C(\Cn2ccnc2)c2ccc(Cl)cc2Cl)c(Cl)c1 | 91.6 % of DMSO
CC(C)(C)C(=O)OCC(=O)[C@H]1CC[C@H]2[C@@H]3CCC4=CC(=O)CC[C@]4(C)[C@H]3CC[C@]12C | 98.2 % of DMSO
CCCCN(CC)c1nc(C)nc2c1c(C)cn2-c1c(C)cc(C)cc1C | 106 % of DMSO
